# Measurements from different studies.
# Each numbered part is a random draw from the data of one study; scales do not carry over between parts.
# UniProt Q5S007, sequence (whole entry, looked up): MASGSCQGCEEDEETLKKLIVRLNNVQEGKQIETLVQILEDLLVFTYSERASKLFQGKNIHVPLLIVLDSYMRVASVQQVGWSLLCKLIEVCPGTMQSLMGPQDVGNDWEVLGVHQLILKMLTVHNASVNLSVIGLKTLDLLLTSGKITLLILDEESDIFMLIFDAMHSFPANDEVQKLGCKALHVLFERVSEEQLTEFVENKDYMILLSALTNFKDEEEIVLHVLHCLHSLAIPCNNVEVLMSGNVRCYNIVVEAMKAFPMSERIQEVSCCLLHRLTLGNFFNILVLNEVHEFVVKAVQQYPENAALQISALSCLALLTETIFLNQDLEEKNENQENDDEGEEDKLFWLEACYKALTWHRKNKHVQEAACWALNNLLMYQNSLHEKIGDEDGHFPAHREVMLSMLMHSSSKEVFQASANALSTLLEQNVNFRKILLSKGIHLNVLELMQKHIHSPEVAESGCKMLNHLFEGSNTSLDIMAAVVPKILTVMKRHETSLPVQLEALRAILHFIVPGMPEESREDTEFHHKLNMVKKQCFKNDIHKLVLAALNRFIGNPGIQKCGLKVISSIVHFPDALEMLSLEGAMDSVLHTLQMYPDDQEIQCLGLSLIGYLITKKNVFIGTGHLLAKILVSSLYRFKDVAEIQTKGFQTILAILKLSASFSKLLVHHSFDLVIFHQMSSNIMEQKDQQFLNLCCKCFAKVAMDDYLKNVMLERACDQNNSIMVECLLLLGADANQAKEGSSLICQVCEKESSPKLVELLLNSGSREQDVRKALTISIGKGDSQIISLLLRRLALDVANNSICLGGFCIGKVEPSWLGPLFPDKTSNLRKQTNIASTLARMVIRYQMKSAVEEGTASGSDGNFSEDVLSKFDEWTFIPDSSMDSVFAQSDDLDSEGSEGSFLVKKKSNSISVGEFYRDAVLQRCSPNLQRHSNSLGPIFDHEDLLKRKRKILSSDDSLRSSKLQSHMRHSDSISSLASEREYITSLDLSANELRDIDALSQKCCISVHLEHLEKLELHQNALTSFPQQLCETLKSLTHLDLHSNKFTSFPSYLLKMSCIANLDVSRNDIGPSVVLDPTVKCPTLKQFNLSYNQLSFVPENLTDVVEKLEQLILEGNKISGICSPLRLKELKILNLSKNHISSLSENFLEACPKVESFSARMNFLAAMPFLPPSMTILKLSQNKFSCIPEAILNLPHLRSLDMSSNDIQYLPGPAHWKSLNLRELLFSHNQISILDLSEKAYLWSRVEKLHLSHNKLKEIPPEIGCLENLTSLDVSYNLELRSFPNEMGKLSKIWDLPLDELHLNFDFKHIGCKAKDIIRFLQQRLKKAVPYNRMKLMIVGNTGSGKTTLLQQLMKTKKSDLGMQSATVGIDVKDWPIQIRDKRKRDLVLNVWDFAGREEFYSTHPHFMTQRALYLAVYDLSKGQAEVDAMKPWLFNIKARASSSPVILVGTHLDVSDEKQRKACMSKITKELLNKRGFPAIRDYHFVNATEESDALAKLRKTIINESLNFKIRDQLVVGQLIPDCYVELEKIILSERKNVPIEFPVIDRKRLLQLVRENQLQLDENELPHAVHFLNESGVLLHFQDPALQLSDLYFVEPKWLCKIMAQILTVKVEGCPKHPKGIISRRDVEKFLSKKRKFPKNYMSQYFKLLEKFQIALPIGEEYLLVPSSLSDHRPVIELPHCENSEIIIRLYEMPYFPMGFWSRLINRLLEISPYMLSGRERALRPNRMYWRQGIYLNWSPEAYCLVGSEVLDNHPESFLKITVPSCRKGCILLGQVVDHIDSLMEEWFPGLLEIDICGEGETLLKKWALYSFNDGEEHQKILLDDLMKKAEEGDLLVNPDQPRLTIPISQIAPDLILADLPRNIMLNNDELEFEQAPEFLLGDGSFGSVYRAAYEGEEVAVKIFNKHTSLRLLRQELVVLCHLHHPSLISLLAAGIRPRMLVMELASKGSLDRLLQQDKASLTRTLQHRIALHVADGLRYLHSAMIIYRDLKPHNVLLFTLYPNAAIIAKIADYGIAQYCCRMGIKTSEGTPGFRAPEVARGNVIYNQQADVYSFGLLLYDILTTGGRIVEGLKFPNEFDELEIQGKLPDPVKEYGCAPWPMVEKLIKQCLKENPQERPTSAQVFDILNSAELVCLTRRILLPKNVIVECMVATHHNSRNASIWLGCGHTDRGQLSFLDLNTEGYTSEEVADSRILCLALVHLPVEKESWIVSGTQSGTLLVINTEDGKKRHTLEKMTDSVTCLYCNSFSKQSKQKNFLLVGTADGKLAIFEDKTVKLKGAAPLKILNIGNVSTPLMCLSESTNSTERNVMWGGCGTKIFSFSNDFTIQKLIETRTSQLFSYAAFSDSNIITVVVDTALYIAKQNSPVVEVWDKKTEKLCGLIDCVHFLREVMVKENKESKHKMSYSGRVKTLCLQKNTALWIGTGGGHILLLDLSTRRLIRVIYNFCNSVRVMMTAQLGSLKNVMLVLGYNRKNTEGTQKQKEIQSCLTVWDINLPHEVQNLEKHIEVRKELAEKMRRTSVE
# UniProt Q02779, sequence (whole entry, looked up): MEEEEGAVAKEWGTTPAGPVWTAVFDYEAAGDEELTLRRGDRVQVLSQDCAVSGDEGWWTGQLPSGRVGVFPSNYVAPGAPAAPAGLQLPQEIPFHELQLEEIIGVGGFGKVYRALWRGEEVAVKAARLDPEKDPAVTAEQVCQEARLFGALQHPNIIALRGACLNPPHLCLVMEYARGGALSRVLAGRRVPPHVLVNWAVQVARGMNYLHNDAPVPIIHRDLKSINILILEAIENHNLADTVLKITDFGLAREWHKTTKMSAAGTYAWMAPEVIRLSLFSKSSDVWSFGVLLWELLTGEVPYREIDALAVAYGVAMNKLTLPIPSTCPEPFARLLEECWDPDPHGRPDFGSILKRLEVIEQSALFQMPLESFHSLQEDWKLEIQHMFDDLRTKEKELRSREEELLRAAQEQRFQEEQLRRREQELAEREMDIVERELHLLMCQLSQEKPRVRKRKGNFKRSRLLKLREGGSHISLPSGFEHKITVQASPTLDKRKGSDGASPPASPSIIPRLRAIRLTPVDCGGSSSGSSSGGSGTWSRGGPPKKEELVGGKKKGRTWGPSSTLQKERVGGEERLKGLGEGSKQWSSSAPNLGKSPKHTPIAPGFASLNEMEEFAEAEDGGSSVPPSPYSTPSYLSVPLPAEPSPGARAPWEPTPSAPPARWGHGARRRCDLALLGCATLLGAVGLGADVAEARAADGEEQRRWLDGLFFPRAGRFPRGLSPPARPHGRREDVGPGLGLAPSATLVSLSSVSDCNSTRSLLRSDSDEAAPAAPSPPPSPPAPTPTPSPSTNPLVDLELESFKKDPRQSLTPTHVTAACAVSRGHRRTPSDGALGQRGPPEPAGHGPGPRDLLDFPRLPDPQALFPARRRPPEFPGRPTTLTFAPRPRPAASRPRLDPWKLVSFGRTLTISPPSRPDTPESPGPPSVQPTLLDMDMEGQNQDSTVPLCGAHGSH
# UniProt Q13464, sequence (whole entry, looked up): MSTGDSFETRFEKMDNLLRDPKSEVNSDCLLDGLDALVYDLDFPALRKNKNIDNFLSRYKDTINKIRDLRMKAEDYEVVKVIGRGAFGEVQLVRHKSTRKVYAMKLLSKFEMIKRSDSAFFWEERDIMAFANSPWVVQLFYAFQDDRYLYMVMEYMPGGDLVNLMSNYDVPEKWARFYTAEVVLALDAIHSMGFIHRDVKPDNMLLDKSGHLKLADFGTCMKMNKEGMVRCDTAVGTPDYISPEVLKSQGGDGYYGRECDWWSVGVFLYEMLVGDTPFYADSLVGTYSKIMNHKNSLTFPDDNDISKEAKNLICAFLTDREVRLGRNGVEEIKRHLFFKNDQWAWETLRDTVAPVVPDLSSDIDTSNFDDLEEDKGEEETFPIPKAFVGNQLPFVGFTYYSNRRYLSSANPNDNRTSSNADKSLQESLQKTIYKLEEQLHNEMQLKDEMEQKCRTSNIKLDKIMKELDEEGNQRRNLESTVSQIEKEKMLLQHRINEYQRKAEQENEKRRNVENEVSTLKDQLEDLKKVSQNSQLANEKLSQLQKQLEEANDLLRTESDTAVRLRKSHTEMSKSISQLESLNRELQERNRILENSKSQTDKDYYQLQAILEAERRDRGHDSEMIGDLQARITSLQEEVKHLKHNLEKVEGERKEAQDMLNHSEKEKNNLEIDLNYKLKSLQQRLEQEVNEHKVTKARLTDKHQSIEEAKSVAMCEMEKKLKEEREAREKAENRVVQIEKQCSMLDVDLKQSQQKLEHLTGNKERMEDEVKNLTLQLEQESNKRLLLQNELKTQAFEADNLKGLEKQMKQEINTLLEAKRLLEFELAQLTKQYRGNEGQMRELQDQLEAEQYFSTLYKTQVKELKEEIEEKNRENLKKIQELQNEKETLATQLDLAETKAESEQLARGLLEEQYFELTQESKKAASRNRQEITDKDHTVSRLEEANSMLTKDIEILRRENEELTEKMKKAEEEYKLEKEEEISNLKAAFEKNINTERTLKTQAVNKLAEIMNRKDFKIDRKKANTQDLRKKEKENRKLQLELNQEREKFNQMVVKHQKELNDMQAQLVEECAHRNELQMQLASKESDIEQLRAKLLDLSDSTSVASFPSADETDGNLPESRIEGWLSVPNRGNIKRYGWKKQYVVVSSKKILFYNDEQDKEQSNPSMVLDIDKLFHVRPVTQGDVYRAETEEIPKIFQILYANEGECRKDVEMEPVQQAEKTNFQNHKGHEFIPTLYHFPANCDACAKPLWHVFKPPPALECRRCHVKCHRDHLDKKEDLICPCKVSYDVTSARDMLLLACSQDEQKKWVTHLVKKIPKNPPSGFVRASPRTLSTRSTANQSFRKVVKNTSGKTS
# UniProt P06493, sequence (whole entry, looked up): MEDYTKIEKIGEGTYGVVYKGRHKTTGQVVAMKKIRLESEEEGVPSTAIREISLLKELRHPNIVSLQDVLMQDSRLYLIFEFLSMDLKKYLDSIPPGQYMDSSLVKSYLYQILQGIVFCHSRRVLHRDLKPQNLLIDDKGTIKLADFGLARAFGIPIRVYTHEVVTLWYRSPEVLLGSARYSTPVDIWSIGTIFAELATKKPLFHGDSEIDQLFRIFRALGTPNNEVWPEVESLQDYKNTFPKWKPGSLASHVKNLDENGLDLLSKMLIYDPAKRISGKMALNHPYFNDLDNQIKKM

# Study 1
# Cell line: HaCaT
# Tested at: 100 µM
# Time: 18 h
Structure (SMILES),viability
C[N+]1(C)CCCC(OC(=O)C(O)(c2ccccc2)c2ccccc2)C1 (stereo not shown),112%
O=C(/C=C/c1ccc(O)c2c1[C@H](C(=O)O[C@H](Cc1ccc(O)c(O)c1)C(=O)O)[C@@H](c1ccc(O)c(O)c1)O2)O[C@H](Cc1ccc(O)c(O)c1)C(=O)O,149%
O=C(/C=C/c1cccc(S(=O)(=O)Nc2ccccc2)c1)NO,17.7%
CN(N=O)C(=O)N[C@@H](C=O)[C@@H](O)[C@H](O)[C@H](O)CO,108%
NC(=O)c1cccnc1,120%
Cc1nc(Nc2ncc(C(=O)Nc3c(C)cccc3Cl)s2)cc(N2CCN(CCO)CC2)n1,21.2%
CCCCCCCCCCC[C@@H](C[C@@H]1OC(=O)[C@H]1CCCCCC)OC(=O)[C@H](CC(C)C)NC=O,57%

# Study 2
# Structure (SMILES): CS(=O)(=O)CCNCc1ccc(-c2ccc3ncnc(Nc4ccc(OCc5cccc(F)c5)c(Cl)c4)c3c2)o1
# Read-out: enzyme activity
# Action: inhibitor
# Tested at: 0.5 µM
# Reference: control
target,remaining activity
"MAPK11 (Homo sapiens, UniProt Q15759)",101%
"Cyclin-dependent kinase 1, with cyclin A (CDK1, Homo sapiens, UniProt P06493)",101%
"MAPK14 (Homo sapiens, UniProt Q16539)",101%
"MET (Homo sapiens, UniProt P08581)",84.1%
"MARK2 (Homo sapiens, UniProt Q7KZI7)",137%
"CLK3 (Homo sapiens, UniProt P49761)",107%
"PLK3 (Homo sapiens, UniProt Q9H4B4)",105%
"Myosin-IIIb (MYO3B, Homo sapiens, UniProt Q8WXR4)",96.1%
"ROCK1 (Homo sapiens, UniProt Q13464)",108%
"CDC42BPB (Homo sapiens, UniProt Q9Y5S2)",95.7%
"PRKG2 (Homo sapiens, UniProt Q13237)",108%
"MAP2K1 (Homo sapiens, UniProt Q02750)",105%

# Study 3
# Compound: C=CC(=O)N1CCC[C@@H](n2nc(-c3ccc(Oc4ccccc4)cc3)c3c(N)ncnc32)C1
# Action: inhibitor
# Tested at: 1 µM
target,test,inhibition [%]
"PI4KB (Homo sapiens, UniProt Q9UBF8)",enzyme activity,8
"FLT3 (Homo sapiens, UniProt P36888, D835Y)",,60
"RIOK3 (Homo sapiens, UniProt O14730)",,6
"LRRK2 (Homo sapiens, UniProt Q5S007)",enzyme activity,11
"FGR (Homo sapiens, UniProt P09769)",,95
"MAP3K10 (Homo sapiens, UniProt Q02779)",enzyme activity,30

# Study 4
# SMILES: c1ccc(N2CCN(Cc3nc4ccccc4[nH]3)CC2)nc1
# Technique: competition with immobilised ligand
# Tested at: 1 µM
target,test,remaining binding [%]
"PRKACB (Homo sapiens, UniProt P22694)",cell-free assay,93
"STK32C (Homo sapiens, UniProt Q86UX6)",binding,100
"GAK (Homo sapiens, UniProt O14976)",binding,100
"PLK4 (Homo sapiens, UniProt O00444)",binding,99
"PIP5K1A (Homo sapiens, UniProt Q99755)",cell-free assay,79
"PIK3CB (Homo sapiens, UniProt P42338)",cell-free assay,100

# Excerpt of the above (study 4):
target,test,remaining binding [%]
"STK32C (Homo sapiens, UniProt Q86UX6)",binding,100
"PLK4 (Homo sapiens, UniProt O00444)",binding,99
"PIK3CB (Homo sapiens, UniProt P42338)",cell-free assay,100
